Experimental data pooled from the literature.
Parts stem from different laboratories: compare values within a part only.

Block 1
Target: RING finger protein unkempt homolog, zinc fingers 1-6, GST-SBP tag (UNK, Homo sapiens, UniProt Q9C0B0, residues 30-357)
UniProt Q9C0B0, sequence (30-357, looked up): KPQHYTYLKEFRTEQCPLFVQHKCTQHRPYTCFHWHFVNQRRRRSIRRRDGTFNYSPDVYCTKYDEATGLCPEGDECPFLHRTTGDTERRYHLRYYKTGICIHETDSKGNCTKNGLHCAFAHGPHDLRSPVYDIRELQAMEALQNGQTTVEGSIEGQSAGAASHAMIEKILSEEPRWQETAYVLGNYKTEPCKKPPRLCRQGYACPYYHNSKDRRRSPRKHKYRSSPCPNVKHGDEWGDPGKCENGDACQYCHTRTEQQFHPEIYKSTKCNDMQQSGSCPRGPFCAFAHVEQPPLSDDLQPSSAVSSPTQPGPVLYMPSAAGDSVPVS
Method: RNA Bind-n-Seq
Molecule type: RNA
Matrix: in vitro
Tested at: not given
Notes: RNA with constant flanks, human-mouse chimeric sites, ends assumed
Relative to: input RNA pool
Reading: higher = stronger binding
Endpoint: bound/input enrichment
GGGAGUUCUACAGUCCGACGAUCAGCACAACACCAGCUAAGCUAAGAAAUCCUUGUACAAGUGAACAGAACUGCACCAGCCCAUUUAGCUACAAAAAUGUGCUUAGUCUUACUGACAGAGGAGAGUUUUUCAAUGAACUUGUUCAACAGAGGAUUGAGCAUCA: 1.19 ratio
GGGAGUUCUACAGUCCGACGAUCGCGAACAGGACUACAGAAAUGCUGGUAAUUUCAGUCACUUGCUGAUGACUUCUGAUGUCCCAGCAAAUAAUGCCACAGUUGACUGCUGAGAAGAUACUUCUGAGGACCCACGUCUAAGGUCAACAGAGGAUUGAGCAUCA: 0.129 ratio
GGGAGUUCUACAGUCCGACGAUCAAAGCCCAAGUAUUUUGAAAAAAUUCAAACAGAUUUGACAAGGGUAGCCAGCUUGGAGUCUAGCAACUUGCCAAUGUUGCUUACCAACUGGGGGCUUGUUUUUCUUUUCUUCUUUCAAAUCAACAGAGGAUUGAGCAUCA: 0.168 ratio
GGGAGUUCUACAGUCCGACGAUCAAAGAACCUCUCUCUGAUGAAGAUGAGGAAGACAAUGAUGAUGUUGAACCUAUUACUGAAUUUCGAUUUGUGCCCAGUGAUAAGUCAGCAUUGGAGGCAAUGUUCACAGCAAUGUGUGAGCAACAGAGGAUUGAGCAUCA: 0.235 ratio
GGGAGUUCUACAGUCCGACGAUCGGAAGCACAAUGAUGGAGAUUGAUGGUGACAAAGGCAAGCAGGGCGGGCCCACCUACUACAUAGACACCAAUGCCCUCCGCGUGCCCAGGGAGAAUAUGGAGGCCAUCUCACCACUCAAGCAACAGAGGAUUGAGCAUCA: 0.195 ratio
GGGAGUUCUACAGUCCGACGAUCUCUGGUCACACUCGUGUGUAUGGUGUUUGCUUUGUGGACACUUCACUGGGCAAGUUUUUCAUAGGUCAGUUUUCGGAUGACCGCCACUGUUCGAGAUUUAGGACGCUAGUGGCUCACUAUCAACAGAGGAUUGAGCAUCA: 0.326 ratio
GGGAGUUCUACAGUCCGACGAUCUUUGUUUUUAUGCUAAGCACACGUGCUGGUGGUCUUGGCAUCAAUCUUGCAACUGCUGAUGUAGUCAUUUUAUAUGACUCAGAUUGGAAUCCGCAAGUUGAUCUUCAGGCUAUGGACCGUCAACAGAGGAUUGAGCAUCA: 0.193 ratio
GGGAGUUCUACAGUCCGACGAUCAAAAUAGACUAUGGCGAGUACAUGGAUAAAAAUAAUGUGAGGCGGCAAGCAACAACAAUCAUAGCUGAUAACAUUAUAUUUCUGAGUGACCAGACAAAAGAAAAGGCAUAGAACGGAUGACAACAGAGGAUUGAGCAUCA: 2.46 ratio
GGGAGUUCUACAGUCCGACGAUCGGCUGCUGGUGACUGUCCUGGAGUGGCUGGAGUUCCCGCCGGAGCGCGGCCAGACUAAUUUUAGAAAAUGCCAAGUAGGAAGUUUGUCGAUGGUGAAGUGGUCAGAGGCCGAUGGCCUGGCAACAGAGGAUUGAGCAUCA: 1.95 ratio
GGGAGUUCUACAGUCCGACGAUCUUGGAAGGACCAGAGCCUAAUCAACUGAAACCACUAGUCAUACAGGCUAUGCCCACCCUAAUAGAACUAAUGAAAGACCCCAGUGUAGUUGUUCGAGAUACAGCUGCGUGGACUGUGGGCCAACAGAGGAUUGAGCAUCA: 1.1 ratio
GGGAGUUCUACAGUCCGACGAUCAAAAUAGACUAUGGCGAGUACAUGGAUAAAAACAAUGUGAGGCGGCAAGCAACAACAAUCAUAGCUGAUAACAUUAUAUUUCUGAGUGACCAGACAAAAGAAAAGGCAUAGAACGGAUGACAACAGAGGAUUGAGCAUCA: 3.22 ratio

Block 2
Target: Ras GTPase-activating protein-binding protein 1, full length (G3BP1, Homo sapiens, UniProt Q13283)
UniProt Q13283, sequence (whole entry, looked up): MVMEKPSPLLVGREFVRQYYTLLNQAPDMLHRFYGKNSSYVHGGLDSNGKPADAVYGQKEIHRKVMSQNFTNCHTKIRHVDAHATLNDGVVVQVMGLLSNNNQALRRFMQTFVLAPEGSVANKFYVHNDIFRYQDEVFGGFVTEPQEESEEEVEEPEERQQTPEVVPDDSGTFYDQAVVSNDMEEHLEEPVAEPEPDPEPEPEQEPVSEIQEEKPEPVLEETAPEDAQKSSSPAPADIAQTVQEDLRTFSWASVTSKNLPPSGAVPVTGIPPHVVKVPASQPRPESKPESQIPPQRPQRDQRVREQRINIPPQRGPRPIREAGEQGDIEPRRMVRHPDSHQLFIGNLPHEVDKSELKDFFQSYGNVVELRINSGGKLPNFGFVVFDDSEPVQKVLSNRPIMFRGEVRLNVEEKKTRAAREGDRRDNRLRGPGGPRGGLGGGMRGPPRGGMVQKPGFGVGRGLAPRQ
Method: RNA Bind-n-Seq
Molecule type: RNA
Matrix: in vitro
Tested at: 200 nM
Notes: whole 134-nt RNA, ends assumed
Together with: 150 mM LiCl
Relative to: input library
Reading: higher = stronger binding
Endpoint: log2 enrichment
Library: 7-deaza-guanosine replaces G
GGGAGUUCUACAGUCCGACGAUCCAAGUCCUGUGCUACACAUCGUAUGUACCGAAUCGGGUUUUUGGGUUUGGGUGGGAAAGUAUUAUGUUACGCCGUUCGGAUCUGCACUUCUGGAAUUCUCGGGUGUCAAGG: -0.551
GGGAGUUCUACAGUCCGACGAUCUAACUUUAGAGGAGGAUCAGAUGGAUAUGGCAGUGGACGUGGAUUUGGGGAUGGCUAUAAUGGGUAUGGAGGAGGACCUGGAGGUGGCAAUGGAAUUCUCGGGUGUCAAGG: -0.0827
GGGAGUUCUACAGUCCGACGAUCAGUCCUGUGCUACACAUCGUAUGUACCGAAUCGGGUGGGAAAAAGGGUUUUUUUGGGAAAGUAUUAUGUUACGCCGUUCGGAUCUGCACUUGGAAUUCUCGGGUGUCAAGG: -1.09
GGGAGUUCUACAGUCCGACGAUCCAAGUCCUGUGCUACACAUCGUAUGUACCGAAUCGGGGCCCGGGCCCGGGCCCGGAAAGUAUUAUGUUACGCCGUUCGGAUCUGCACUUCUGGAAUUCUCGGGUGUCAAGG: -1.76
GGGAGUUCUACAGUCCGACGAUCCCUGUGCUACACAUCGUAUGUACCGAAUCGGGGUUUUUGGGGAAAAAAAGGGGAAAGGGGAAAGUAUUAUGUUACGCCGUUCGGAUCUGCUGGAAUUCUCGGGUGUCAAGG: -0.214
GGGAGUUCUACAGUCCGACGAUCCCUGUGCUACACAUCGUAUGUACCGAAUCGGGCCCCCCCGGCCCCCCCGGGGCCCCCCCGGAAAGUAUUAUGUUACGCCGUUCGGAUCUGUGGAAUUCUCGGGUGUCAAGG: 0.331
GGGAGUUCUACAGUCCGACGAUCUGGGAGCUGGAUUUUGUUUAUUUUUUUAGCUCAUUUCCAGGGGUGGGAAUUUUUUUUUAAUAUGUGUCAUGAAUAAAGUUGUUUUUGAAAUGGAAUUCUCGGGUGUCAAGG: -0.782
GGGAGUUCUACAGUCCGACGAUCAAGUCCUGUGCUACACAUCGUAUGUACCGAAUCGGGCCCCCGGCCCCCGGCCCCCGGAAAGUAUUAUGUUACGCCGUUCGGAUCUGCACUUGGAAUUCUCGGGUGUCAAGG: 0.0356
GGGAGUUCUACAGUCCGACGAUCUGGCGCCGUUCGACACCAGGCGGAUCCGCUCUGCAGCACGAACCCAUCUCCAGCCGCAGCCGCAGCCGCCGCCCGGGCCGAGGAGCAGCCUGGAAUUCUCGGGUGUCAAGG: 0.306
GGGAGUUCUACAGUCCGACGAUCUUCUGGUCUGCUCACCAGAGGUUCUUCAAAUACUUAUGCAUAGCAUCCAAAGUUAAAAGGGUUGUGCAACUAGCUCGAGAGGAAAUCAAGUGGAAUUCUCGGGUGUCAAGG: -0.512
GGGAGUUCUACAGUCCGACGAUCUCCUCAAGUCCUGUGCUACACAUCGUAUGUACCGAAUCGGGGAGGAGGAGGGAAAGUAUUAUGUUACGCCGUUCGGAUCUGCACUUCCAGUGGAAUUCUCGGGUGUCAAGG: 0.39

Block 3
Target: Histone acetyltransferase KAT6A, both winged helices, GST fusion (KAT6A, Homo sapiens, UniProt Q92794, residues 1-181)
Method: protein binding microarray
Molecule type: double-stranded DNA, one strand shown
Matrix: in vitro
Tested at: not given
Notes: 8-mer, flanks averaged, mean of 2 arrays, mostly near background
Relative to: not given
Reading: higher = stronger binding
Endpoint: E-score
Target sequence (chain): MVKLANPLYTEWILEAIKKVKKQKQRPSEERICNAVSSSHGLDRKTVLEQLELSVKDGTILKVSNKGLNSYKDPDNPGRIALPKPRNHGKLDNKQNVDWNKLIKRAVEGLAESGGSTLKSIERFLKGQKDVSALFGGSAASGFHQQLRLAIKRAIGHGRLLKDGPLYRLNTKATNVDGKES
GACTATTA: -0.0995
ACCCCTCA: -0.15
CGTTTCAG: 0.17
ATCTAACC: -0.017
GAGGTTCA: 0.0207
ACAACCAA: -0.156
TAAGCTAA: -0.152
ACGACTCG: 0.0167
AAAACGTG: 0.00984
CGGATGGC: 0.0917
AACTGCGG: 0.195
ATCGCGAC: 0.256
CTAGTTGA: -0.161
TGACATCA: -0.0616
AACGGCAT: 0.293
CACCATGC: -0.0921
AAGGTGGA: -0.168

Block 4
Target: PABPC1L2, full length, GST fusion (mouse, UniProt A0ABA7IW68)
Method: RNAcompete
Molecule type: RNA
Matrix: in vitro
Tested at: 20 nM
Notes: 7-mer, probes averaged, single round
Relative to: mean of 7-mers
Reading: higher = stronger binding
Endpoint: 7-mer Z-score
Residues (chain): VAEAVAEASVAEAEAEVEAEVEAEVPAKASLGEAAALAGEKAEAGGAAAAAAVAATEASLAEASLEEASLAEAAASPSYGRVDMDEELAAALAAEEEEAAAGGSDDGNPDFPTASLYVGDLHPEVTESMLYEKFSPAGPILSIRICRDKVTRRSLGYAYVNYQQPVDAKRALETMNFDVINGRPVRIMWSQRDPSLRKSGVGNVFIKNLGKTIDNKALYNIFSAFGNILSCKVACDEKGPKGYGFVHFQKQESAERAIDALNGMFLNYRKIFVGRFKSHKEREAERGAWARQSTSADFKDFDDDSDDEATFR
AUAGUAC: -0.139
CCCCUAU: -0.371
ACAGUGC: -0.0772
CACGGCC: -0.108
UAGAGAU: -0.0699
CUCUCGG: -0.242
CCUGACC: -0.336
GGAUAUU: -0.0464
CACGAUA: 0.037
GCGAGGC: -0.00289
UGCUCAA: -0.101
GUGGACU: 0.137
UGUAUAC: -0.177
UGCUUUU: -0.132
AAGAGGC: 0.622
CAAACCU: -0.0699
ACAGGUA: 0.138
UGUGACA: 0.0116
CAACUUG: -0.142
GGGGCCU: 0.113
AAAGCAA: 1.33
UCAGAAG: -0.144

Block 5
Target: Interferon regulatory factor 3, full length, phosphomimetic (IRF3, Homo sapiens, UniProt Q14653, residues 1-427, S386D/S396D/S398D/S402D/T404D/S405D)
Method: protein-binding microarray
Molecule type: double-stranded DNA, one strand shown
Matrix: in vitro
Tested at: 2540 nM top
Notes: 60-bp whole probe
Together with: salmon DNA 0.4 mg/ml
Relative to: random background probes
Reading: higher = stronger binding
Endpoint: fitted relative affinity
All sequences stand within: GCCTAGCAC … GTCTTGATTCGCTTGACGCTGCTG
Target sequence (chain): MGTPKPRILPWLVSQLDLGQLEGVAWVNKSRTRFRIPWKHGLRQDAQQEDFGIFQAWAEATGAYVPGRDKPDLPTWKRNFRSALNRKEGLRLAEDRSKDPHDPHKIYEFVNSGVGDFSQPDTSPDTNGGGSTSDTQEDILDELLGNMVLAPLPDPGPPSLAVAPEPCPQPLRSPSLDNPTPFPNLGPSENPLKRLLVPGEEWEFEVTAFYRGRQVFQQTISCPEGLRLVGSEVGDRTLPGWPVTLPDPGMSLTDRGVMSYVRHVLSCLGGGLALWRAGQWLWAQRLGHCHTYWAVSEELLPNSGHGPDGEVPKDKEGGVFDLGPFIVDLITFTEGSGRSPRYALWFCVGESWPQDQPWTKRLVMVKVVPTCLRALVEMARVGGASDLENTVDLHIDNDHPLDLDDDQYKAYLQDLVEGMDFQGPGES
GACGAACTGAGACTGGTGACGTGCTAG: -0.246 z-score
TTAGAGTTCGGGTTTCGATTAGTGCTA: 1.79 z-score
AGGGCGGCTGAGTCAGCACAGTGCTAG: -1.11 z-score
TTAGGTTCCGGTTTCTGTTAGTGCTAG: 5.98 z-score
AAGATTCTAGCCTATAGAAGCGTGCTA: -0.322 z-score
TTAGGACCGGACACTGGGTTAGTGCTA: -0.403 z-score
GACGGACTGCTACTGCTTACGTGCTAG: -0.666 z-score
GCATTTTTCTAACCCATTGAGTGCTAG: 1.66 z-score
GACGGTTTCCTACCGCTGACGTGCTAG: 4.26 z-score
GACGGTTTCGGACAGGGGACGTGCTAG: 3.07 z-score
TGGTCTTTCCACTTTCTTTTGTGCTAG: 1.53 z-score
TCATGTTTCCTCTTTCTACTGTGCTAG: 3.73 z-score
TCATTTCTAAATTCCCTACTGTGCTAG: 2.87 z-score
TATAATATATATATTGTTAGGTGCTAG: 0.234 z-score
GACGGTTTCGACGATCGGGACGTGCTA: 1.81 z-score
GACGGTATCGGGTTTCTGGACGTGCTA: 2.42 z-score
TACATTTTCCAAATGCCCCTGTGCTAG: 3.12 z-score
TTGGGTATCGGGTTTCGGTTAGTGCTA: 3.33 z-score
TTACTTCCCAATAATCTTTTCGTGCTA: 1.47 z-score
GACGGTTTCGACTAACGGGACGTGCTA: 2.64 z-score
AGTAGCTGGGATTACAGGCAGTGCTAG: -0.827 z-score
GACGGTCCCGGTATCGGGACGTGCTAG: 0.818 z-score
